Measurements collected from several papers.
Lines come from different studies, so protocols differ. Values joined by “and” are separate records of one study, mostly repeats; a detail may differ. ± marks the error that the study gave.
rep main protease: Replicase polyprotein 1ab, main protease (rep, Severe acute respiratory syndrome coronavirus 2, UniProt P0DTD1)
rep papain-like protease: Replicase polyprotein 1ab, papain-like protease (rep, Severe acute respiratory syndrome coronavirus 2, UniProt P0DTD1)

Compound	target	read-out	action	method	time	added	IC50
O=C1C[C@H](c2ccc(O)cc2)c2c(cc(O)c3c2O[C@H](c2ccc(O)c(O)c2)[C@H](OC(=O)c2cc(O)c(O)c(O)c2)C3)O1	rep main protease	enzyme activity	inhibitor	–	–	–	41.2 µM
Nc1ncnc2c1ncn2[C@@H]1O[C@H](CSCCNC(=O)NCC2CCCCC2)[C@@H](O)[C@H]1O	Replicase polyprotein 1ab, nsp14 (rep, Severe acute respiratory syndrome coronavirus 2, UniProt P0DTD1)	nsp14 methyltransferase activity	inhibitor	radiometric SPA	20 min	3H-SAM 250 nM, RNA 50 nM	3.4 ± 1.4 µM
CC[C@@H](C)[C@H](NC(=O)c1ccccc1[Se][Se]c1ccccc1C(=O)N[C@H](C(=O)O)[C@H](C)CC)C(=O)O	rep main protease	enzyme activity	inhibitor	–	–	–	5.14 µM
O=C(c1cccc(-n2cccc2)c1)N1CCCN(S(=O)(=O)c2ccc(F)cc2)CC1	rep main protease	enzyme activity	inhibitor	FRET	–	–	21 µM
C=CC(=O)NC(CC(=C)C)C(=O)N1CC(C(=O)NC(CCSC)C(=O)NC)C(c2cccc(C(F)(F)F)c2)C1 (stereo not shown)	rep main protease	–	–	–	–	–	> 100 µM
C[C@@H]1C[C@H]2[C@@H](C[C@H]1n1[se]c3ccccc3c1=O)C2(C)C	rep main protease	enzyme activity	inhibitor	–	–	–	0.487 µM
CCc1ccccc1NC(=S)N/N=C/c1ccc(O)cc1	rep main protease	enzyme activity	inhibitor	FRET	–	–	19.1 µM
CCC(C(=O)Nc1ccccc1Cl)n1cccc2nc(SCc3ccc(F)cc3)nc1-2 (stereo not shown)	rep papain-like protease	enzyme activity	inhibitor	–	–	–	14.1 µM
Cc1oc2nc1C(=O)N[C@](C)(C(=O)O)c1nc(c(C)o1)C(=O)N[C@](C)(C(=O)O)c1nc(c(C)o1)C(=O)N[C@]2(C)C(=O)O	rep main protease	enzyme activity	inhibitor	–	–	–	3.82 µM and 3.8 µM
C[C@@H](Cc1ccc(O)c(O)c1)[C@@H](C)Cc1ccc(O)c(O)c1	rep papain-like protease	enzyme activity	inhibitor	FRET	–	–	16.3 µM
Cc1ccc(OCCN(C)C)cc1C(=O)N[C@H](C)c1cc(-c2cnn(C)c2)cc(-c2cnn(C(C)C)c2)c1	rep papain-like protease	enzyme activity	inhibitor	FRET	–	–	0.109 µM
CCOC(=O)/C=C/[C@H](C[C@@H]1CCNC1=O)NC(=O)[C@H](CC(C)C)NC(=O)[C@@H](NC(=O)OCc1ccccc1)[C@@H](C)OC(C)(C)C	rep main protease	enzyme activity	inhibitor	–	–	–	0.149 µM
CCc1n[nH]c(NC(=O)c2ccc3c(c2)nnn3C)n1	rep main protease	enzyme activity	inhibitor	FRET	–	–	26.5 µM
O=C(O)C(O)Cc1ccc(O)c(O)c1 (stereo not shown)	rep papain-like protease	enzyme activity	inhibitor	fluorescence	–	–	> 100 µM
N#Cc1ccccc1C[C@@H](N)C(=O)N[C@H](Cc1ccc(Cl)cc1Cl)C(=O)N[C@H](CC(N)=O)Cc1ccc(F)cc1	rep main protease	enzyme activity	inhibitor	fluorescence	–	–	0.8 µM
CN=c1nc(-c2ccccc2)n(-c2ccccc2)s1	Replicase polyprotein 1ab, methyltransferase (rep, Severe acute respiratory syndrome coronavirus 2, UniProt P0DTD1)	enzyme activity	inhibitor	–	–	–	1.5 µM

For quick reference, copied from above:
Compound	target	read-out	action	method	time	added	IC50
CCc1ccccc1NC(=S)N/N=C/c1ccc(O)cc1	rep main protease	enzyme activity	inhibitor	FRET	–	–	19.1 µM
